Measured values collected from several papers.
Numbered parts are unrelated; each lists some results of a single study.
UniProt Q9Y6M4, sequence (whole entry, looked up): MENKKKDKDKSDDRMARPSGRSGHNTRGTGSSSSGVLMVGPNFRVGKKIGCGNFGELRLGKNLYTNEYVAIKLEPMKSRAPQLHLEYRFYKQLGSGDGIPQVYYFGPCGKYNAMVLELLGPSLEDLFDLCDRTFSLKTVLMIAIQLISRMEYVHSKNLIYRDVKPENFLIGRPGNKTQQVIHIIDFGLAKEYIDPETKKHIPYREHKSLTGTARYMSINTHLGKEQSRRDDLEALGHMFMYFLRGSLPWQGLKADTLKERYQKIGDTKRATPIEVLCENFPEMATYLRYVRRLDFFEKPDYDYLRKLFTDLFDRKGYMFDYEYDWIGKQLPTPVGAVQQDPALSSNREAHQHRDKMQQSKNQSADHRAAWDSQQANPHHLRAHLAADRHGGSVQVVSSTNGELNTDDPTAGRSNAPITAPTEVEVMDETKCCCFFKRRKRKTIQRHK
UniProt Q8WXR4, sequence (whole entry, looked up): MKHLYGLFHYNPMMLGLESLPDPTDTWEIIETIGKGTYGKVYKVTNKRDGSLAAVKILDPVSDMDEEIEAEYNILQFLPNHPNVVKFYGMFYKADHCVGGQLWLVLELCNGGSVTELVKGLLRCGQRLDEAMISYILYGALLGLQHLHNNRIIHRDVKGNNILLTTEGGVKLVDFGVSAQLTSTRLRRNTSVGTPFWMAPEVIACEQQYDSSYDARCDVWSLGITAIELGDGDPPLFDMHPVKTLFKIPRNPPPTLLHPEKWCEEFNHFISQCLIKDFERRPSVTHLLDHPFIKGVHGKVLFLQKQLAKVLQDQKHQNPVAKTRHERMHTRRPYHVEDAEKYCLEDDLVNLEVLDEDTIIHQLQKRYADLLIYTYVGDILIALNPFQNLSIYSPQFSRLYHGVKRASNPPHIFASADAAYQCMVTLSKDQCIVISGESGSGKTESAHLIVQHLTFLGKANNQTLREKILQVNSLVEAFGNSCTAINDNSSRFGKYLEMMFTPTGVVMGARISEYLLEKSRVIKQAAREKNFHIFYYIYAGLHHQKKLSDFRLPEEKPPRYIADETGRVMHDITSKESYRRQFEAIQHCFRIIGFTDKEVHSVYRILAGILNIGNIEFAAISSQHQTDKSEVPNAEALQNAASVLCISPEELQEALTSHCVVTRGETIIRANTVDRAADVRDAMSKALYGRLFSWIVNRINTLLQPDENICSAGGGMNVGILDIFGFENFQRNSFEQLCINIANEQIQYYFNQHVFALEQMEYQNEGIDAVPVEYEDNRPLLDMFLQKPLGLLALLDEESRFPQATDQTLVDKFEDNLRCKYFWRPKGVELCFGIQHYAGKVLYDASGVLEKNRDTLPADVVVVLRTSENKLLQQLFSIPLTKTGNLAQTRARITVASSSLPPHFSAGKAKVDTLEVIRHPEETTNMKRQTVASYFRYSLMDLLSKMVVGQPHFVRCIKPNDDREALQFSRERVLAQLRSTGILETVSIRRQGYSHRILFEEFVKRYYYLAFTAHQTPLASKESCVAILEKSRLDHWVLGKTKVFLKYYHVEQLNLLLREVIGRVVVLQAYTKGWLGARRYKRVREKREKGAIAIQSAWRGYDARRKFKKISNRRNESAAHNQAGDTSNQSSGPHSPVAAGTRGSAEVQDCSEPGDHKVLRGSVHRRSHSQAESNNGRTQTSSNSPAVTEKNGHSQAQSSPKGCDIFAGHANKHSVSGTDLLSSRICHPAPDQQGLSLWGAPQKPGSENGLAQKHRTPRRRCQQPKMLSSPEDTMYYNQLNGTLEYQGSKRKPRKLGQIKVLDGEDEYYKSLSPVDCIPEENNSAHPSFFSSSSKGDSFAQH

Set 1
SMILES: CC(C)n1cnc(-c2ccc(F)cc2)c1-c1ncc(C(=O)Nc2ccc(N3CCN(C)CC3)cc2)[nH]1
Technique: phase 2a clinical trial
Species: patients with idiopathic pulmonary fibrosis
Measurement: patients with treatment-related adverse events
60 mg once daily, together with: standard of care: 72.7%
30 mg once daily, without standard of care: 57.1%
60 mg once daily, without standard of care: 85.7%

Set 2
Target: HLA class I histocompatibility antigen, C alpha chain, allele C*04:01 (Homo sapiens, UniProt P10321)
Effect on: peptide-MHC binding
Form: peptide
Concentration: concentration not given
Measurement: binding
RIYKRSLKL: inactive
VPIAWAAA: inactive
SEFWLNYTA: inactive

Other studies, line by line
Effect on: cell-free assay
CNC(=O)c1cc(Oc2ccc(NC(=O)Nc3ccc(Cl)c(C(F)(F)F)c3)cc2)ccn1
remaining signal (Myosin-IIIb (MYO3B, Homo sapiens, UniProt Q8WXR4); 0.5 µM): 85.6%

Cn1cncc1[C@](O)(COc1ccc(C#N)cc1-c1ccc(OC(F)(F)F)cc1)c1ccc(C#N)cc1
remaining binding (Casein kinase I isoform gamma-3 (CSNK1G3, Homo sapiens, UniProt Q9Y6M4); competition with immobilised ligand; 1 µM): 71%

Some of these lines once more (set 2):
VPIAWAAA: inactive
